Experimental data from different studies.
A part holds a random share of what one study measured.

Sample 1
Target: RNA binding protein fox-1 homolog 2, RRM domain, GST-SBP tag (RBFOX2, Homo sapiens, UniProt O43251-10, residues 100-194)
Technique: RNA Bind-n-Seq
Form: RNA
Sample: in vitro
Tested at: 365 nM
Setting: natural RNA segment, single round, ends assumed
Reference: no-protein control
Reading: higher = stronger binding
Quantity: RBNS enrichment (R)
Residues (chain): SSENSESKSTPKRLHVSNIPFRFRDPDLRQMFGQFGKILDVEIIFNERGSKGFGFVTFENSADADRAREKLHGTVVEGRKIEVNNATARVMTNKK
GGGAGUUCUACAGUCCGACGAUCCCAAAUUGGUUCCCCUGCUCCCCCCCUCCAACCUCUCAAAGACAGAAUGUGUCUCAGAGAUUUCCUGCAAGAAACUCAGGUCCAAUCUGGACUAGAAUAAAGACCUCUGGUGGAAUUCUCGGGUGCCAA: 1.5
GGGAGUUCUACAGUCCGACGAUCGUGUGAUUUGGGUGGGCUUUUACAUCUUGCCUACCAUUGCAUGAAACAUUGGGGUUUCUUCAAAAUGUGUGUGUCAUACUUCUUUUGGGAGGGGGGUUGUUUUCUUCUGUUGGAAUUCUCGGGUGCCAA: 0.859
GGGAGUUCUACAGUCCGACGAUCUACAGCUGCUUUGUUUCUUUGCAAUGCAUUGUAUGGCUUUAUAAAUGAUAAAGUUAAAGAAAACUCUUGCCGUUAUCUAUCUGUGUUGUUCGGACAGGGGUCUGCCAUGUUGGAAUUCUCGGGUGCCAA: 0.432
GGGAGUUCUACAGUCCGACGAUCUCAACUCCUAUUAAUACCCAUAAUCAGUAACCUACCAAGAAAAGCCCGUAUUUGGAAAGUGUGGAGUUUGUGUUGGAAAAGCUGCCUGGAGAGAAGAGUUGUGUCCUUUAUGGAAUUCUCGGGUGCCAA: 1.07
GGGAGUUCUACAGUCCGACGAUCACUUUAAUAUAAAGUAGUCCUGUGAAUGCCACUGCCUUCGCUUCUUGCCUCUGUGCUGUGUGUGACGUGACCGGACUUUUCUGCAAACACCAACAUGUUGGGAAACUUGGUGGAAUUCUCGGGUGCCAA: 0.522
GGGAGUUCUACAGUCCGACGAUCUUGGUGGGGCCAGGGUCCUCUCCCCUGCCCAGGAAUGUGCAAGGCCAGGGCAUGGGGGCAAAUAUGACCCAGUUUUGGGAACACCGACAAACCCAGCCCUGGCGCUGAGCUGGAAUUCUCGGGUGCCAA: 0.537
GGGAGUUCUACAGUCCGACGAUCAUAUAUUCUACUACUAAAGGUAUCAAUGGAACAUGAAGACGAGUAUUUAGGCAGAAGCAAAACAGGAAACCAUCCUUACAAACAUGCUUACCUGCACAUCUGUUUGCAUGUGGAAUUCUCGGGUGCCAA: 0.687
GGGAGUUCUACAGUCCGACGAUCCUAAAUGAAGGUUAAAACAUGCUUAAGAAAAAUGCACUGAUUUCUGCAUUAUGUGUACAGUAUUGGACAAAGGAUUUUAUUCAUUUUGUUGCAUUAUUUUGAAUAUUGUCUGGAAUUCUCGGGUGCCAA: 0.907
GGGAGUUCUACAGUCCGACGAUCAGACUCGUGUUCUGAAGGAUACUCUCCUCCAUCACCCCUGCACCUUCCUCCGACCUGUGUAGGGUGUGGACCCAGUAAGGGCUGGGAAUUUCUUACUUUCCCACCCGCUUUGGAAUUCUCGGGUGCCAA: 0.305

Sample 2
Target: Interferon regulatory factor 7, full length, phosphomimetic (IRF7, Homo sapiens, UniProt Q92985, residues 1-503, S471D/S472D/S475D/S476D/S477D/S483D/S484D/S487D)
Technique: protein-binding microarray
Form: double-stranded DNA, one strand shown
Sample: in vitro
Tested at: 2200 nM top
Setting: 60-bp whole probe
Together with: salmon DNA 0.4 mg/ml
Reference: random background probes
Reading: higher = stronger binding
Quantity: fitted relative affinity
Shared flanks, not repeated: GCCTAGCAC … GTCTTGATTCGCTTGACGCTGCTG
Residues (chain): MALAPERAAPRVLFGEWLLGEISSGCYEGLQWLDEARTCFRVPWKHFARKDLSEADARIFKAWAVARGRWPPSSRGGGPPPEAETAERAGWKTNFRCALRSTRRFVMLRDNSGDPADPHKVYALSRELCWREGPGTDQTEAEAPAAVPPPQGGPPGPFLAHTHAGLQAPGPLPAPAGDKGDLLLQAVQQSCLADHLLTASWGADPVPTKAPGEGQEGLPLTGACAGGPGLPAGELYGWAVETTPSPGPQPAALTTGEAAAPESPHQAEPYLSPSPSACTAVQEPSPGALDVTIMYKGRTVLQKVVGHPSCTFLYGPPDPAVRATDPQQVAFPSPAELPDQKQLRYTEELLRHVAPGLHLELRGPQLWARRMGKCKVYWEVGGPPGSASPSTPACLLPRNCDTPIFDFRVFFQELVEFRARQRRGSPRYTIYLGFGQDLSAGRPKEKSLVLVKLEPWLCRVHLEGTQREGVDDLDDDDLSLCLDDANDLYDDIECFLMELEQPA
TTAGATTTCAGTTTCGATCAGTGCTAG: 5.31 z-score
GACGAACTGAGACTGGCGACGTGCTAG: -0.18 z-score
TCATGTTGCAAATATTGCACTGTGCTA: 0.656 z-score
ACATCCAAATCCACCATTCAGTGCTAG: 1.49 z-score
GACGAACTGACTTTCGAGACGTGCTAG: 2.92 z-score
TGAGGTTTCGGTTTCGGTTAGTGCTAG: 16.8 z-score

Sample 3
Target: Histone acetyltransferase KAT6A, winged helix 2, GST fusion (KAT6A, Homo sapiens, UniProt Q92794, residues 85-181)
Technique: protein binding microarray
Form: double-stranded DNA, one strand shown
Sample: in vitro
Tested at: not given
Setting: 8-mer, flanks averaged, mean of 2 arrays, mostly near background
Reference: not given
Reading: higher = stronger binding
Quantity: E-score
Residues (chain): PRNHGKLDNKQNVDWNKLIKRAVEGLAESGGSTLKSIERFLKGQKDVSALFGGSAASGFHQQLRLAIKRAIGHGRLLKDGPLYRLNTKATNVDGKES
ACTCGGAT: 0.0568
GCTACGTA: -0.114
CTCGCTAA: 0.00925
AAGAAGTC: -0.0252
ATACTACC: -0.238
GAGACCCA: -0.0419
AAGTATAA: -0.0932
CATGAGCG: -0.111

Further values, each from its own experiment
PhoQ, residues 284 288 289 292 302 303 NLMGRA
fold induction (PhoP, residues 12 14 15 18 19 MHTVL (Escherichia coli, UniProt P23836); Sort-seq, refers to: YFP reporter; E. coli; PhoQ-PhoP variant library, together with: 10 µM Mg2+; reference: high Mg2+ state, higher = stronger signaling): 13

A few entries again (sample 1):
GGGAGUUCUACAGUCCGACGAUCCCAAAUUGGUUCCCCUGCUCCCCCCCUCCAACCUCUCAAAGACAGAAUGUGUCUCAGAGAUUUCCUGCAAGAAACUCAGGUCCAAUCUGGACUAGAAUAAAGACCUCUGGUGGAAUUCUCGGGUGCCAA: 1.5
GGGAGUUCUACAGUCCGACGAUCGUGUGAUUUGGGUGGGCUUUUACAUCUUGCCUACCAUUGCAUGAAACAUUGGGGUUUCUUCAAAAUGUGUGUGUCAUACUUCUUUUGGGAGGGGGGUUGUUUUCUUCUGUUGGAAUUCUCGGGUGCCAA: 0.859
